Measurements from different studies.
Each line is one published result; not all experiments were run side by side. Numbers after ± are the reported error.

For `benzalkonium chloride`, the MIC was greater than 640 µM (Staphylococcus aureus; MRSA ATCC 33591; dark and light identical).
For `Teicoplanin A2-2`, the MIC was 0.5 µg/mL (Staphylococcus aureus; methicillin-susceptible).
The respiration-enhancing concentration of `melittin` is reported as 2 µM (Staphylococcus aureus; resazurin reduction; MRSA NCTC 12493).
For `thiostrepton`, the MIC was no more than 0.03 µg/mL (Staphylococcus aureus; methicillin-resistant).
The IC50 of `vancomycin` is reported as 800 ± 100 nM (Staphylococcus aureus).
`insulin human` has a fold change of 1.07 (item: KALRN mRNA; EcoHIV-infected mouse, brain; i.p., dose not given; baseline: PBS).
`tunicamycin` has an MIC of 64 µg/mL (Staphylococcus aureus; EUCAST broth microdilution; Mu50 MRSA VISA; 18-24 h, 37 °C).
For `colistin`, MIC read “inactive” (Staphylococcus aureus; 1199B NorA overexpressing; compound alone).
`Polymyxin B` has an MIC of greater than 128 µM (Staphylococcus aureus; KCTC 1621; 16 h, 37 °C, Mueller-Hinton broth).
For `ceftiofur sodium`, the MIC was 2 µg/mL (Staphylococcus aureus; USA300; combination, median and range, with: OA 32 µg/mL).
`DAPT` gave an MIC of 1.5 µg/mL (Staphylococcus aureus; ATCC BAA-1556, MRSA).

For quick reference, copied from above:
For `thiostrepton`, the MIC was no more than 0.03 µg/mL (Staphylococcus aureus; methicillin-resistant).
